Results gathered from unrelated publications.
Protocols differ between the studies behind these lines. Values joined by “and” are separate records of one study, mostly repeats; a detail may differ. Numbers after ± are the reported error.
Chain of UniProt P14867 (whole entry, looked up): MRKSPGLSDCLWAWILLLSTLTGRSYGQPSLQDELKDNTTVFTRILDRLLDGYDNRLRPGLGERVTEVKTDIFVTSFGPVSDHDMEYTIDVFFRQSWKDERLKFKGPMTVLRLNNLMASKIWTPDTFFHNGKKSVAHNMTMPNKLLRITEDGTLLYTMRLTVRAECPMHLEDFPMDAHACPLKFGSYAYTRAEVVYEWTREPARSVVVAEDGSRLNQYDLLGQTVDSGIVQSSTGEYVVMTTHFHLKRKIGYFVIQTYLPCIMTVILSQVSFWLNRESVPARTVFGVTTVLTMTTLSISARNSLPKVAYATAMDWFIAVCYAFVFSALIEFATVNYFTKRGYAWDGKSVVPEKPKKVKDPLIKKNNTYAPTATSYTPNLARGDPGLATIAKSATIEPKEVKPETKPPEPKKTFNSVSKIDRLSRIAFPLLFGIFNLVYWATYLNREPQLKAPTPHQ
Chain of UniProt P47870 (whole entry, looked up): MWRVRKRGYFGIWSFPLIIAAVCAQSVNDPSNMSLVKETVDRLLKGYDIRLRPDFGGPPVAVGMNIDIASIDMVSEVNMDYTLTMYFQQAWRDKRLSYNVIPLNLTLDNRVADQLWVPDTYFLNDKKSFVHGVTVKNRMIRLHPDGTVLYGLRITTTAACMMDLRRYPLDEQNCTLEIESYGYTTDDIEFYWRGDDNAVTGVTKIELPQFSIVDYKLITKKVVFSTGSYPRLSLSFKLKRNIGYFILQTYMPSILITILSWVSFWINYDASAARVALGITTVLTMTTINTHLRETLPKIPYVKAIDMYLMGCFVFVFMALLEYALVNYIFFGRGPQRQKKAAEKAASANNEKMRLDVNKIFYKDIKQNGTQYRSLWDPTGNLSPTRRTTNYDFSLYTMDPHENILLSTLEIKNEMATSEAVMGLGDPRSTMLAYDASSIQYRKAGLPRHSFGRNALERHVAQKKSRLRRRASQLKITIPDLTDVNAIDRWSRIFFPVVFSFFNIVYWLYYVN

| SMILES | target or system | test | system | conditions | how to read | endpoint | value |
| --- | --- | --- | --- | --- | --- | --- | --- |
| CC[C@H](C)[C@@H]1NC(=O)[C@H](Cc2c[nH]cn2)NC(=O)[C@H](CC(N)=O)NC(=O)[C@H](CO)NC(=O)[C@H](CCC(N)=O)NC(=O)[C@@H](NC(=O)CN)CSSC[C@@H]2NC(=O)CNC(=O)[C@H](C)NC(=O)[C@H](CC(C)C)NC(=O)[C@@H]3CSSC[C@@H](C(=O)NCC(=O)O)NC(=O)[C@H](Cc4ccccc4)NC(=O)CNC(=O)[C@H](CC(N)=O)NC(=O)[C@@H]4CCCN4C(=O)CNC(=O)[C@H](CSSC[C@H](NC(=O)[C@H](CCCNC(=N)N)NC(=O)[C@H](CC(N)=O)NC(=O)[C@H](Cc4c[nH]cn4)NC(=O)[C@H](CCCCN)NC(=O)[C@H](CC(C)C)NC1=O)C(=O)N[C@@H](CCCCN)C(=O)N[C@@H](CCC(N)=O)C(=O)N[C@@H](CC(=O)O)C(=O)N[C@@H](CO)C(=O)N[C@@H](CC(=O)O)C(=O)N3)NC(=O)[C@H](C(C)C)NC2=O | HEK293-TB | Wnt signaling |  | added: exogenous Wnt3a |  | IC50 | > 100 µM |
| CNCCO.O=C(O)C(Cl)Cl | Amaranthus retroflexus | herbicidal activity |  | 15 mg/mL, 21 days, post-emergence greenhouse |  | inhibition | 0% |
| COc1ccccc1-c1n[nH]c2nc(NC3CCN(C(=O)Cc4ccc(F)cc4F)CC3)ncc12 |  | bead binding, competition bead pull-down, item: LINJ.05.0500 | Leishmania donovani axenic amastigote extract | 10 µM | relative to: vehicle | relative abundance | 1.05 |
| O=C1NC2(CC2)COc2ncc(F)cc2[C@H]2COCCN2c2ccn3ncc1c3n2 |  |  | Sprague-Dawley rat, male, testes | oral, 2.5 mg/kg/day, 4 weeks dosing, end of recovery |  | organ-to-brain weight ratio | 153 ± 14.6% |
| CC[C@@H]1CN2CCc3c([nH]c4cccc(OC)c34)[C@@H]2C[C@@H]1/C(=C\OC)C(=O)OC | rabbit anti-mitragynine polyclonal IgG | antigen binding, competitor, competitive indirect ELISA | 10% methanol | 60 min both antibody incubations |  | IC50 | 1 µg/mL |
| CC(C)C[C@@H]1NC(=O)[C@@H](Cc2c[nH]c3ccccc23)NC(=O)[C@H](CCCNC(=N)N)NC(=O)[C@@H](CCC(=O)O)NC(=O)[C@H](CCC(N)=O)NC(=O)[C@@H](CCC(=O)O)NC(=O)[C@H](CCCNC(=N)N)NC(=O)[C@@H](Cc2c[nH]c3ccccc23)NC1=O |  |  | male LDLr-/- mice, Western diet | dose not given, 2 weeks | relative to: vehicle | plasma total cholesterol | decreased |
| CCc1nc2ccc(OC(F)(F)F)cn2c1C(=O)NCc1ccc2oc(-c3ccc(Cl)cc3)nc2c1 | Mycolicibacterium smegmatis |  |  | 72 h |  | MIC | > 25 µM |
| Cc1ccc(OCC2CN(C)C2)cc1C(=O)N[C@H](C)c1cc(-c2cnn(C)c2)nc2ccccc12 | Vero E6 |  |  | 15.62 µM |  | viability | 94.5% and 97.1% and 98.6% |
| CC(C)C[C@@H]1NC(=O)[C@@H]2CSSC[C@@H](C(=O)NCC(=O)O)NC(=O)[C@H](Cc3ccccc3)NC(=O)CNC(=O)[C@H](CC(N)=O)NC(=O)[C@@H]3CCCN3C(=O)CNC(=O)[C@@H]3CSSC[C@H](NC(=O)[C@H](CCCNC(=N)N)NC(=O)[C@H](CC(N)=O)NC(=O)[C@H](Cc4c[nH]cn4)NC(=O)[C@H](CCCCN)NC(=O)[C@H](C)NC(=O)CNC(=O)[C@H](Cc4c[nH]cn4)NC(=O)[C@H](C)NC(=O)[C@H](CO)NC(=O)[C@H](CCC(N)=O)NC(=O)[C@@H](NC(=O)CN)CSSC[C@H](NC(=O)CNC(=O)[C@H](C)NC1=O)C(=O)N[C@@H](C(C)C)C(=O)N3)C(=O)N[C@@H](CCCCN)C(=O)N[C@@H](CCC(N)=O)C(=O)N[C@@H](CC(=O)O)C(=O)N[C@@H](CO)C(=O)N[C@@H](CC(=O)O)C(=O)N2 | HEK293, Wnt1-transfected | Wnt signalling |  |  |  | IC50 | > 100 µM |
| Nc1ccccc1C(=O)OCC#CCOC(=O)c1ccccc1N | Aspergillus fumigatus | microbial growth, broth dilution | MF5668 |  |  | MIC | 4 µg/mL |
| CC(C)(C)C(=O)OCOP(=O)(OCOC(=O)C(C)(C)C)C1CCCN(O)C1=O (stereo not drawn) | NCI-H522 |  |  |  |  | log TGI | -5.74 log M |
| CS(C)(=O)=Nc1ccc(-c2ccc(-c3nc4cc(O[C@@H]5CO[C@H]6[C@@H]5OC[C@H]6O)[nH]c4cc3F)cc2)cc1 | GABA-A receptor; GABA-A site (alpha1/beta2 interface), with gamma-2 subunit (Homo sapiens, UniProt P14867+P47870) | agonist radioligand binding |  | 10 µM |  | inhibition | -13% |
| CC1CCC2C(C)C(CCCOC(=O)C(Cc3ccc(N(CCCl)CCCl)cc3)NC(=O)OC(C)(C)C)OC3OC4(C)CCC1C32OO4 (stereo not drawn) | MCF-10A | cell growth or viability, CCK-8 |  |  |  | IC50 | > 50 µM |
| CC[C@H](C)[C@H](NC(=O)[C@H](CC(=O)O)NC(=O)[C@@H](NC(=O)[C@@H]1CCCN1C(=O)[C@@H](N)CCCNC(=N)N)[C@@H](C)O)C(=O)N[C@@H](CCCCN)C(=O)N[C@H]1CSSC[C@@H]2NC(=O)[C@H](CCCNC(=N)N)NC(=O)CNC(=O)[C@H](CC(N)=O)NC(=O)[C@H]([C@@H](C)O)NC(=O)[C@H](CCCCN)NC(=O)CNC(=O)[C@H](Cc3ccccc3)NC(=O)[C@H](CCCNC(=N)N)NC(=O)[C@H](CO)NC(=O)[C@H](CCCCNC(=O)OCc3cc(OC)c(OC)cc3[N+](=O)[O-])NC(=O)[C@@H]3CSSC[C@@H](C(=O)N[C@@H](Cc4ccccc4)C(=O)O)NC(=O)[C@H](CC(=O)O)NC(=O)[C@H](CSSC[C@H](NC(=O)[C@H](CCC(N)=O)NC(=O)[C@H](Cc4ccc(O)cc4)NC(=O)[C@H](CO)NC(=O)[C@H](CCC(=O)O)NC(=O)[C@H](CO)NC1=O)C(=O)N[C@@H](Cc1ccccc1)C(=O)N1CCC[C@H]1C(=O)N[C@@H](C(C)C)C(=O)N3)NC(=O)[C@H](Cc1ccccc1)NC(=O)CNC(=O)[C@H](CC(N)=O)NC(=O)[C@H](C(C)C)NC2=O | human iPS-derived cardiomyocytes |  |  | 200 nM, after illumination 365 nm | relative to: no illumination | APD70 increase | 1.3 fold |
| CCc1nn(C)c2nc(-c3ccc(C(=O)O)cc3)nc(NCc3ccccc3)c12 | Cryptosporidium parvum |  | HCT-8 | 6 x EC90, 48 h | relative to: DMSO control | parasite number | 27.6% and 23.6% and 44.3% and 28.3% |
| FC(F)(F)c1cccc(CNc2nc(NC3CCN(Cc4ccccc4)CC3)c3nc[nH]c3n2)c1 | Cryptococcus neoformans | RNA-seq, item: CNAG_05320 |  | 48 µg/mL, 3 h | relative to: untreated | mRNA fold change | 1.31 |
| Cc1cc(C(=O)Nc2nc3cccc(C)c3n2[C@H]2CCCCN(C(=O)/C=C/CN(C)C)C2)ccn1 | Trypanosoma brucei |  | 2T1 parental line | concentration not given |  | parasite density | 780000 parasites/mL and 860000 parasites/mL and 782000 parasites/mL |
| CC[C@H](C)[C@H](NC(=O)[C@H](CC(C)C)NC(=O)[C@H](CC(C)C)NC(=O)[C@H](CC(=O)O)NC(=O)[C@@H](NC(=O)[C@H](CCC(=O)O)NC(=O)[C@H](CCCCN)NC(=O)[C@H](Cc1ccc(O)cc1)NC(=O)[C@H](CCCCN)NC(=O)[C@H](Cc1c[nH]cn1)NC(=O)CNC(=O)CN)[C@@H](C)O)C(=O)N[C@@H](CC(C)C)C(=O)N[C@@H](Cc1ccccc1)C(=O)N[C@@H](CCCCN)C(=O)N[C@@H](CC(=O)O)C(=O)N[C@@H](CC(=O)O)C(=O)N[C@@H](Cc1ccc(O)cc1)C(=O)N[C@@H](Cc1ccccc1)C(=O)N[C@@H](C)C(=O)N[C@@H](CCCCN)C(=O)N[C@@H](CCCCN)C(=O)N[C@@H](CC(N)=O)C(=O)N[C@@H](CCC(=O)O)C(=O)N[C@@H](CCC(=O)O)C(=O)N[C@@H](CCCNC(=N)N)C(=O)N[C@@H](CCCCN)C(N)=O | HCV IRES RNA | MALDI-TOF mass spectrometry, item: 3'-phosphate products | hepatitis C virus |  |  | initial cleavage rate | 6.4 ± 1.3 %/min |
| CN1C(=O)C(C2C3=C(CC(C)(C)CC3=O)Oc3ccc([N+](=O)[O-])cc32)C(=O)N(C)C1=O (stereo not drawn) | 3T3-L1 pre-adipocytes | cell viability, MTT |  | 72 h |  | IC50 | > 100 µg/mL |
| Cc1nc2cc(Br)ccn2c1C(=O)NCc1ccc2oc(-c3ccc(Cl)cc3)nc2c1 | Mycolicibacterium smegmatis |  |  |  |  | MIC90 | > 100 µM |
| Cc1cc(Oc2nc(N3CC[C@@H](c4ccncc4)C3)ncc2F)[nH]n1 | Mycobacterium tuberculosis | OD | H37Rv PurF CRISPRi knockdown | 0.25 µM, added: anhydrotetracycline low |  | normalised growth | 2% and 1% |
| O=C(O)c1ccc(-c2nc(-c3ccccc3Cl)c3sccn23)cc1 | HEL | flow cytometry |  | 0.1 mM |  | CD235a-positive cells | 85.4% |
| COc1ccccc1-c1n[nH]c2nc(N[C@H]3CC[C@H](NS(=O)(=O)CC(C)C)CC3)ncc12 |  | bead binding, competition bead pull-down, item: LINJ.24.1500 | Leishmania donovani extract | 10 µM | relative to: vehicle | relative abundance | 0.31 |
| CC(C)CC(C(=O)N1CC2(CC1C#N)C(=O)Nc1ccccc12)N(C)C(=O)c1cc2c(F)cc(F)c(F)c2[nH]1 (stereo not drawn) | human coronavirus 229E | viral replication | MRC-5 | 0.1 µM |  | inhibition | 100% |
| COc1ccccc1-c1ccncc1C(=O)Nc1nnc(OCc2ccc(Cl)cc2)s1 | HCT-116 BRCA2 wild-type |  |  | 1 µM | relative to: untreated | colony survival | 97.3% |
| Cc1ccc(OCCN(C)C)cc1C(=O)N[C@H](C)c1cc(-c2cccs2)nc2ccccc12 | Vero E6 |  |  | 3.906 µM |  | viability | 95.4% and 93.5% |
| CC[C@H](C)CCCCC(=O)N[C@@H](CCN)C(=O)N[C@H](C(=O)N[C@@H](CCN)C(=O)N[C@H]1CCNC(=O)[C@H]([C@@H](C)O)NC(=O)[C@H](CCN)NC(=O)[C@H](CCN)NC(=O)[C@H](CC(C)C)NC(=O)[C@@H](CC(C)C)NC(=O)[C@H](CCN)NC1=O)[C@@H](C)O | Escherichia coli | daily serial passaging | ATCC 8739 | highest sub-MIC, 39 days | relative to: initial MIC | MIC fold change | 1.37 |

A few entries again:
| SMILES | target or system | test | system | conditions | how to read | endpoint | value |
| --- | --- | --- | --- | --- | --- | --- | --- |
| CC(C)C[C@@H]1NC(=O)[C@@H](Cc2c[nH]c3ccccc23)NC(=O)[C@H](CCCNC(=N)N)NC(=O)[C@@H](CCC(=O)O)NC(=O)[C@H](CCC(N)=O)NC(=O)[C@@H](CCC(=O)O)NC(=O)[C@H](CCCNC(=N)N)NC(=O)[C@@H](Cc2c[nH]c3ccccc23)NC1=O |  |  | male LDLr-/- mice, Western diet | dose not given, 2 weeks | relative to: vehicle | plasma total cholesterol | decreased |
| Cc1cc(Oc2nc(N3CC[C@@H](c4ccncc4)C3)ncc2F)[nH]n1 | Mycobacterium tuberculosis | OD | H37Rv PurF CRISPRi knockdown | 0.25 µM, added: anhydrotetracycline low |  | normalised growth | 2% and 1% |
